Published values of several laboratories.
± gives the spread as reported.

COC(=O)c1c(-c2cccc(OC)c2)c2n(c1C(=O)OC)CCn1cccc1-2  IC50 (PANC-1; cell growth or viability, MTT; 48 h): 67.2 µM
COc1cc(C(=O)c2oc3c(OC)cccc3c2NC(C)=O)cc(OC)c1OC  IC50 (L1210; cell growth or viability; 24 h): 52.7 µM
COc1ccc(/C=C(\C(=O)c2cc(C)[nH]c(=O)c2C(=O)N2CCCCC2)c2ccc(OC)c(C)c2)cc1C  IC50 (human Fibroblast; cell growth or viability, MTT; 72 h): > 10 µM
Cc1ccc(-c2cc3ccccc3[nH]2)cc1  IC50 (HEK293 NF-κB luciferase reporter; reporter gene, refers to: NF-κB; 6 h, with: TNFα): 1.5 ± 0.3 µM
COC(=O)c1c(-c2cccc([N+](=O)[O-])c2)c2n(c1C(=O)OC)CCn1cccc1-2  IC50 (PANC-1; cell growth or viability, MTT; 48 h): 34.1 µM
CC[C@]1(O)C[C@H]2CN(CCc3c([nH]c4ccccc34)[C@@](C(=O)OC)(c3cc4c(cc3OC)N(C=O)[C@H]3[C@@](O)(C(=O)OC)[C@H](OC(C)=O)[C@]5(CC)C=CCN6CC[C@]43[C@@H]65)C2)C1  IC50 (HCT-15/ADM2-2; cell growth, XTT; 72 h): 2.73 µg/mL
Fc1cc(F)cc(-c2cc3ccccc3[nH]2)c1  IC50 (HEK293 NF-κB luciferase reporter; reporter gene, refers to: NF-κB; 6 h, with: TNFα): 48.3 ± 1.5 µM
CCn1[c](=[Au-2][Cl])n(CC)c2ccccc21  IC50 (RC-124 kidney epithelial; cell proliferation, crystal violet staining; 96 h): 4.7 ± 1.1 µM
C(=C\c1ccccc1)/c1ccccc1  IC50 (CCRF-CEM; cell growth or viability, ATP luminescence; 24 h): 109 µM
CCCCCCCCCCCCCCCC(=O)NCCC[N+](C)(C)CCCS(=O)(=O)[O-]  IC50 (SK-OV-3 eGFP-transfected; cell viability, MTT; 24 h): 120 µM
C=CCc1ccc(OCc2nn(CN3CCCCC3)c(=S)o2)c(OC)c1  IC50 (SK-OV-3; cell growth or viability, MTT; 72 h): 19.5 µM
C[C@@H](Cn1ccc(-c2ccc(C#N)c(Cl)c2)n1)NC(=O)c1cc([C@@H](C)O)[nH]n1  IC50 (LAPC4; cell growth or viability, ATP luminescence): 0.44 µM
COc1c(O)cc2oc3cc4c(c(O)c3c(=O)c2c1CC=C(C)C)C=CC(C)(C)O4  IC50 (H1L6.1c3; cell viability, MTT): 47.6 ± 0.56 µM
Cc1nc(NC(=O)N2CCC[C@H]2C(N)=O)sc1-c1ccnc(C(C)(C)C(F)(F)F)c1  IC50 (SK-OV-3; Akt phosphorylation, inhibitor, in-cell western, refers to: Akt pSer473; 1 h): 0.162 µM
COC(=O)c1c(-c2ccccc2O)c2n(c1C(=O)OC)CCn1cccc1-2  IC50 (PANC-1; cell growth or viability, MTT; 48 h): 20.3 µM
O=C(/C=C/c1ccc(O)cc1)c1ccc(Cl)cc1  IC50 (WRL68; cell growth or viability, MTT; 72 h): 18.5 µM
COc1ccc2oc(C(=O)c3cc(OC)c(OC)c(OC)c3)c(NC(=O)CCl)c2c1  IC50 (L1210; cell growth or viability; 24 h): 49 µM
CCN(CC)Cc1cc2c(C)cc(=O)oc2c(C)c1O  IC50 (NIH3T3; hyaluronan secretion; 72 h): 100 ± 62 µM
COc1cc(C(=O)c2oc3ccccc3c2NC(C)=O)cc(OC)c1OC  IC50 (L1210; cell growth or viability; 24 h): > 100 µM
Cc1cc(C)cc(/C=C(\C(=O)c2cc(C)[nH]c(=O)c2C(=O)N2CCCCC2)c2cc(C)cc(C)c2)c1  IC50 (human primary dermal fibroblasts; cell proliferation, MTT; 72 h): > 10 µM
COc1ccc(C(O)COc2ccc(-c3csc(-c4ccc(OCC(O)c5ccc(OC)c(OC)c5)cc4)n3)cc2)cc1OC (stereo not shown)  IC50 (KARPAS-422; cell growth or viability, ATP luminescence): 0.393 µM
Nc1ccc(/C=C/C(=O)NCc2cc3cc(-c4ccc(C(=O)N5CCC(F)(F)CC5)cc4)cc(-c4ccc(F)cc4)c3o2)cn1  IC50 (U2OS; cell growth or viability, CCK-8; 72 h): 0.8 µM
C[C@H]1[C@H](C)CC[C@]2(C(=O)O)CC[C@]3(C)C(=CC[C@@H]4[C@@]5(C)CC[C@H](O)C(C)(C)[C@@H]5CC[C@]43C)[C@H]12  IC50 (MDA-MB-435; cell growth or viability; 72 h): > 10 µM
Clc1ccc(C(Cn2ccnc2)OCc2csc3c(Cl)cccc23)c(Cl)c1 (stereo not shown)  IC50 (LAPC4; AR transcriptional activity, antagonist, PSA promoter luciferase; 24 h): 0.554 µM
CCn1c(C)c(C(=O)O)c(-c2cccc(N3CCN(c4ccc(NS(=O)(=O)c5ccc(N[C@H](CCN(C)C)CSc6ccccc6)c([N+](=O)[O-])c5)cc4)CC3)c2)c1-c1ccc(Cl)cc1  IC50 (NCI-H146; cell growth or viability; 96 h): 0.0081 µM
CCCCCCCCCCCCCCCCCCOP(=O)([O-])OC1CC[N+](C)(C)CC1  IC50 (MDA-MB-231 LINK-A PIP3-BM knock-out; spheroid growth, 3D spheroid viability): 0.0113 µM
C=CC(C)(C)c1cc(-c2oc3cc(O)ccc3c2Cc2cc(-c3cc4cc(C(C)(C)C=C)c(O)cc4oc3=O)c(O)cc2O)c(O)cc1O  IC50 (Hepa1c1c7; cell growth): 10.8 µM
CNC(=O)c1cc(Oc2ccc(NC(=O)Nc3ccc(Cl)c(C(F)(F)F)c3)cc2)ccn1  IC50 (human Fibroblast; cell growth or viability, SRB; 48 h): 15.1 µM
COc1ccccc1C[C@@H](Oc1cccc2oc(-c3ccc(F)cc3)c(-c3ccc(OCCN4CCN(C)CC4)c(Cl)c3C)c12)C(=O)O  IC50 (NCI-H929; cell viability, MTT; 48 h, 10% CFS): > 1.88 µM
O=c1cc(-c2ccc([N+](=O)[O-])cc2)[nH]c2c(-c3ccc(Cl)cc3)c(Cc3ccccc3)nn12  IC50 (primary human adipocytes; fatty acid uptake; with: C1-BODIPY-C12 fatty acid): 58 µM
COc1ccccc1C[C@@H](Oc1cccc2cc(-c3ccc(F)cc3)n(-c3ccc(OCCN4CCN(C)CC4)c(Cl)c3C)c12)C(=O)O  IC50 (NCI-H929; cell viability, MTT; 48 h, 10% CFS): > 1.88 µM
COc1ccc(C[C@H]2COC(=O)[C@@H]2Cc2ccc(OCCCCC(=O)NO)c(OC)c2)cc1OC  IC50 (CCRF-CEM; cell growth or viability, CCK-8; 48 h): > 5 µM
COC(=O)Nc1nc2ccc(C(=O)c3ccccc3)cc2[nH]1  IC50 (LAPC4; AR transcriptional activity, antagonist, PSA promoter luciferase; 24 h): 8.47 µM
COc1ccc(N(C)c2nc(C)nc3c2CCC3)cc1  IC50 (MDA-MB-435; cell growth or viability, SRB): 0.007 µM
CC1(C)C=Cc2cc3ccc(=O)oc3cc2O1  IC50 (LAPC4; AR transcriptional activity, antagonist, PSA promoter luciferase; 24 h): 5 µM
C=CC(=O)N1CCC[C@@H](n2c(=O)n(-c3ccc(Oc4ccccc4)cc3)c3c(N)nccc32)C1  IC50 (B cells; CD69 surface expression, inhibitor, refers to: CD69; stimulated human whole blood): 0.01 µM
C=CCc1ccc(O)c(-c2ccc(O)c(CC=C)c2)c1  IC50 (PANC-1; cell proliferation, MTS; 72 h, with: 10 µM BLM): 2.51 µM
O=C(N/N=C/c1cc(-c2ccccc2)ccc1O)c1ccccc1O  IC50 (PANC-1; cell growth or viability; 72 h): 2.4 µM
COc1cccc(-c2c3n(c4c(=O)[nH]nc(O)c24)CCn2cccc2-3)c1  IC50 (PANC-1; cell growth or viability, MTT; 48 h): 69.1 µM
CC(C)C[C@H](NC(=O)[C@H](Cc1ccccc1)NC(=O)c1cnccn1)B(O)O  IC50 (RPMI-8226; cell viability; 48 h, with: EGCG 1300 nM): 0.0093 µM
COC(=O)c1c(-c2ccccc2F)c2n(c1C(=O)OC)CCn1cccc1-2  IC50 (PANC-1; cell growth or viability, MTT; 48 h): 72 µM
COc1ccc2c(NC(=O)CI)c(C(=O)c3cc(OC)c(OC)c(OC)c3)oc2c1  IC50 (L1210; cell growth or viability; 24 h): 0.57 µM
COc1cccc(/C=C/C(=O)/C=C/c2cccc(OC)c2OC)c1OC  IC50 (MGC-803; cell growth or viability, MTT; 72 h): 4.6 µM

Excerpt of the above:
COc1cc(C(=O)c2oc3c(OC)cccc3c2NC(C)=O)cc(OC)c1OC  IC50 (L1210; cell growth or viability; 24 h): 52.7 µM
COc1ccc(/C=C(\C(=O)c2cc(C)[nH]c(=O)c2C(=O)N2CCCCC2)c2ccc(OC)c(C)c2)cc1C  IC50 (human Fibroblast; cell growth or viability, MTT; 72 h): > 10 µM
Cc1ccc(-c2cc3ccccc3[nH]2)cc1  IC50 (HEK293 NF-κB luciferase reporter; reporter gene, refers to: NF-κB; 6 h, with: TNFα): 1.5 ± 0.3 µM
